Measurements collected from several papers.
Protocols differ between the studies behind these lines. “And” joins repeats or separate records; there may be more than shown. ± marks the error that the study gave.
Kir3.1/Kir3.4: Kir3.1/Kir3.4 (Homo sapiens, UniProt P48544+P48549)
TOP2A: DNA topoisomerase 2-alpha (TOP2A, Homo sapiens, UniProt P11388)
pyrD: Dihydroorotate dehydrogenase (quinone) (pyrD, Acinetobacter baumannii, UniProt B7GZW7)
AKR1B1: Aldo-keto reductase family 1 member B1 (AKR1B1, Homo sapiens, UniProt P15121)
T1: aptamer DNA; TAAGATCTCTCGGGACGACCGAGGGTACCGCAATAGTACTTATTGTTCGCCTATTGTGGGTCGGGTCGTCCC

Under “normalised MST signal”, `[H]/N=C(/N)NCC(=O)O` is recorded as -0.0905 (Sodium- and chloride-dependent taurine transporter (SLC6A6, Homo sapiens, UniProt P31641, G62A); binding, microscale thermophoresis; 1.95 µM, room temperature, added: 50 nM labelled protein; higher = more binding).
With `COc1cc(F)ccc1-c1ncnc(Nc2cccc(C[S@](C)(=N)=O)c2)n1` the remaining activity was 93% (Tyrosine-protein kinase receptor TYRO3 (TYRO3, Homo sapiens, UniProt Q06418); kinase activity; 10 µM, added: 10 µM ATP).
`O=C(COc1cc(Cl)ccc1Cl)Nc1cc(C2CCC2)nn1CC(F)(F)F` — result for activity: “inactive” (Kir3.1/Kir3.4; activator, thallium flux; HEK293; concentration not given).
For `O=c1nc(SCc2cc(F)cc(C(F)(F)F)c2)nc(SCc2ccc3nc(OCCN4CCOCC4)ccc3c2)[nH]1`, the decatenated DNA was 0% (TOP2A; decatenation; 125 µM, replicate 2).
The inhibition of `NC/C(=C\F)COc1cccc(Cn2c(=S)[nH]c(=O)c3[nH]cnc32)c1` is reported as 89.5% (Amine oxidase [copper-containing] 3 (Rattus norvegicus, UniProt O08590); rat adipose tissue; 0.037 µM).
`CC(=O)N[C@H](C(=O)N1C[C@H](O)C[C@H]1C(=O)NCc1ccc(-c2scnc2C)cc1)C(C)(C)SCCCCCCNC(=O)C[C@@H]1N=C(c2ccc(Cl)cc2)c2c(sc(C)c2C)-n2c(C)nnc21` has a ΔH of -5.2 ± 0.2 kcal/mol (BRD2/VHL, BD1; with VCB (Homo sapiens, UniProt P25440+P40337, K107A/Q101K/V106E); ITC; 25 °C, BRD2 BD1 KEA mutant, ternary).
`C=CC(=O)N1CCC(COCC(=O)N2CCN(c3nc(-c4cnc(N)nc4C(F)F)nc(N4CCOC[C@@H]4C)n3)CC2)CC1` gave a remaining binding of 100% (Serine/threonine-protein kinase BRSK1 (BRSK1, Homo sapiens, UniProt Q8TDC3); KINOMEscan; 1 µM).
For `Cc1cc(NC(=O)CNC2CCCNC2)n(C2CCS(=O)(=O)C2)n1` (stereo not drawn), activity read “inactive” (Kir3.1/Kir3.4; activator, thallium flux; HEK293; concentration not given).
`CCC1(O)CCCN(C(=O)c2ccc(-c3ccc(F)c(NC(=O)CCl)c3)cc2)C1` (stereo not drawn) gave a protein adduct of 53% (DNA dC->dU-editing enzyme APOBEC-3A (Homo sapiens, UniProt P31941); covalent modifier, intact protein mass spectrometry, measured: adduct +26691 Da; 500 µM, 3 h, 20-fold molar excess).
The koff of `CC(=O)NCC(=O)NCC(=O)N[C@H](C(=O)N[C@@H](Cc1ccc(O)cc1)C(=O)N[C@@H](CO)C(=O)N[C@H]1CSSC[C@@H](C(=O)N[C@@H](CCCNC(=N)N)C(=O)N2CCC[C@H]2C(=O)N[C@@H](CCC(N)=O)C(=O)N[C@@H](CCCNC(=N)N)C(=O)NCC(=O)NCCC(=O)N[C@@H](CCCCNC(=O)CN(CC(=O)NCCCC[C@H](NC(=O)CCNC(=O)CNC(=O)[C@H](CCCNC(=N)N)NC(=O)[C@H](CCC(N)=O)NC(=O)[C@@H]2CCCN2C(=O)[C@H](CCCNC(=N)N)NC(=O)[C@@H]2CSSC[C@H](NC(=O)[C@H](CO)NC(=O)[C@H](Cc3ccc(O)cc3)NC(=O)[C@@H](NC(=O)CNC(=O)CNC(C)=O)[C@@H](C)O)C(=O)N[C@@H](Cc3c[nH]cn3)C(=O)N[C@@H](Cc3ccccc3)C(=O)NCC(=O)N[C@@H](C)C(=O)N[C@@H](CC(C)C)C(=O)N[C@@H]([C@@H](C)O)C(=O)N[C@@H](Cc3c[nH]c4ccccc34)C(=O)N[C@@H](C(C)C)C(=O)N2)C(N)=O)C(=O)CCN)C(N)=O)NC(=O)[C@H](C(C)C)NC(=O)[C@H](Cc2c[nH]c3ccccc23)NC(=O)[C@H]([C@@H](C)O)NC(=O)[C@H](CC(C)C)NC(=O)[C@H](C)NC(=O)CNC(=O)[C@H](Cc2ccccc2)NC(=O)[C@H](Cc2c[nH]cn2)NC1=O)[C@@H](C)O` is reported as 0.000367 s⁻¹ (Erythropoietin receptor, extracellular domain (Homo sapiens, UniProt P19235); binding, SPR; 1:1 binding model).
`Cc1nn(C2CCS(=O)(=O)C2)c(C)c1NC(=O)COc1ccc(Cl)cc1Cl` (stereo not drawn) — result for activity: “inactive” (Kir3.1/Kir3.4; activator, thallium flux; HEK293; concentration not given).
For `S=c1[nH]nc(-c2cc(-c3ccccc3)nc3ccccc23)o1`, the fluorescence increase was 80.2 ± 1.77% (P2X purinoceptor 4 (P2RX4, Homo sapiens, UniProt Q99571); calcium mobilization; MCF7 stably transfected; 100 µM, added: ATP 100 µM).
`NCCS(=O)(=O)O` — result for “normalised MST signal”: -0.0301 (Sodium- and chloride-dependent taurine transporter (SLC6A6, Homo sapiens, UniProt P31641, S402A); binding, microscale thermophoresis; 250 µM, room temperature, added: 50 nM labelled protein; higher = more binding).
`c1coc(-c2n[nH]cc2-c2ccnc3ccccc23)c1`: “log2 fold change” -0.05 (Serine/threonine-protein kinase CLA4 (CLA4, Candida albicans, UniProt O14427); kinase binding, MIB/MS competition; Candida albicans lysate; 10 µM; baseline: DMSO, negative = stronger binding).
For `NS(=O)(=O)NCCNc1nonc1C(=NO)Nc1ccc(F)c(Br)c1`, the inflection temperature was 65.3 ± 0.4 °C (Indoleamine 2,3-dioxygenase 1 (IDO1, Homo sapiens, UniProt P14902); nanoDSF; 1% DMSO; 50 µM, SHG1-labelled protein, no DTT).
With `C[C@]12C[C@H](O)[C@H]3[C@@H](CCC4=CC(=O)CC[C@@]43C)[C@@H]1CC[C@@H]2C(=O)CO` the koff was greater than 5 s⁻¹ (Cytochrome P450 11B1, mitochondrial (CYP11B1, Homo sapiens, UniProt P15538, V320A); stopped-flow; nanodiscs; added: excess cyclodextrin).
With `CCc1c(C#N)c(NCC(N)=O)nc(SC(C(N)=O)c2ccccc2)c1C#N` (stereo not drawn) the Dmax was less than 50% (DNA (cytosine-5)-methyltransferase 1 (DNMT1, Homo sapiens, UniProt P26358); degrader, Western blot; HCT-116; 1 µM, 24 h; baseline: DMSO).
`Cc1cc(Nc2ccc(C(C)(C)C)cc2)n2ncnc2n1` has a robust Z-score of 22.7 (pyrD; enzyme activity, inhibitor, colorimetric HTS, measured: DCIP reduction; 3 µM; direction not given).
`O=c1nc(SCc2cc(F)cc(C(F)(F)F)c2)nc(SCc2ccc3sccc3c2)[nH]1` has a decatenated DNA of 100% (TOP2A; decatenation; 7.8 µM, replicate 1).
For `CC1=NN(c2cccc([N+](=O)[O-])c2)C(=O)C1=NNc1ccc(S(N)(=O)=O)cc1`, the inhibition was 34.884 ± 0.0019% (bovine α-glucosidase; enzyme activity, inhibitor, glucose oxidase; 10 µg/mL, added: maltose).
`N[C@@H](Cc1ccc(O)cc1)C(=O)Nc1ccc2ccccc2c1` has a Km of 7.7 µM (rat aminopeptidase III; substrate).
For `O=C1S/C(=C\c2ccc(F)cc2)C(=O)N1Cc1nc2ccccc2s1`, the Hill slope was -0.452 (AKR1B1; enzyme activity, inhibitor).
`CCc1oc2ccccc2c1C(=O)c1cc(Br)c(O)c(Br)c1`: “normalized urate uptake” 0.729 and 0.738 and 0.767 (Solute carrier family 22 member 12 (SLC22A12, Homo sapiens, UniProt Q96S37); inhibitor; HEK-293T; 0.3 µM, 10 min, 37 °C, added: [14C]urate 10 µM).
`CCNC(=O)/C=C/c1cccc(Br)c1` gave a L-leucine uptake of 5.77 nmol/6 min/mg protein and 5.39 nmol/6 min/mg protein and 5.56 nmol/6 min/mg protein (Sodium-dependent neutral amino acid transporter B(0)AT1 (SLC6A19, Homo sapiens, UniProt Q695T7); inhibitor, L-[14C]leucine uptake; CHO-BC cells; 100 µM, sodium-free).
`C[n+]1cn([C@@H]2O[C@H](COP(=O)(O)CP(=O)(O)OP(=O)(O)OC[C@H]3O[C@@H](n4cnc5c(=O)[nH]c(N)nc54)[C@H](O)[C@@H]3O)[C@@H](O)[C@H]2O)c2nc(N)[nH]c(=O)c21` — result for “association rate constant”: 6.6e+07 ± 3.5e+06 M⁻¹ s⁻¹ (m7GpppX diphosphatase (DCPS, Homo sapiens, UniProt Q96C86); binding, stopped-flow fluorescence; 10% glycerol; 20 °C).
For `Nc1ncnc2c1ncn2[C@@H]1O[C@H](CSCC[C@H](N)C(=O)O)[C@@H](O)[C@H]1O`, the binding stoichiometry was 1 ± 0.014 (O-methyltransferase (Sorghum bicolor, UniProt A0A1B6PFV1); ITC; concentration not given, added: PTR+).
With `CN(C)C(=O)C(CCN1CCC(O)(c2ccc(Cl)cc2)CC1)(c1ccccc1)c1ccccc1` the Hill coefficient was 1.33 ± 0.67 (Calcium-activated potassium channel subunit alpha-1, with LRRC26 γ1 subunit (KCNMA1, Homo sapiens, UniProt Q12791); BK channel conductance, inside-out patch clamp; BKα/γ1, Vm -10 mV, nominally Ca2+-free).
`Cc1cc(Nc2cc(F)c(C(F)(F)F)c(F)c2)n2ncnc2n1` gave a robust Z-score of 18.8 (pyrD; enzyme activity, inhibitor, colorimetric HTS, measured: DCIP reduction; 3 µM; direction not given).
For `Nc1ncnc2c1ncn2[C@@H]1O[C@H](COP(=O)(O)CP(=O)(O)OP(=O)(O)O)[C@@H](O)[C@H]1O`, the calcium influx was 94.3% and 95.2% and 89.7% (P2X purinoceptor 1 (P2RX1, Homo sapiens, UniProt P51575, E122A); calcium influx; 100 µM; baseline: ionomycin response).
`CC(C)C[C@H](N)C(=O)O` has a Bmax of 5150 ± 75 cpm/pmol LeuT (snf (Aquifex aeolicus, UniProt O67854, L400C); scintillation proximity; 10 nM protein).
For `Cc1nn(C2CCS(=O)(=O)C2)c(C)c1NC(=O)COc1ccc(C(F)(F)F)cc1C(F)(F)F` (stereo not drawn), activity read “inactive” (Kir3.1/Kir3.4; activator, thallium flux; HEK293; concentration not given).
With `COc1ccc(/C=C2\SC(=O)N(CC(=O)c3ccc([N+](=O)[O-])cc3)C2=O)cc1` the log IC50 was 2.46 log nM (AKR1B1; enzyme activity, inhibitor).
`N#Cc1ccn2c(-c3ccncc3)c(-c3ccc(F)cc3)nc2c1`: “log2 fold change” -0.145 (Cyclin-dependent kinase 1 (CDC28, Candida albicans, UniProt P43063); kinase binding, competitor, MIB/MS competition, measured: CDC28; Candida albicans cell lysate; 1 µM; baseline: DMSO).
`O=C(COP(=O)(O)O)[C@@H](O)[C@H](O)[C@H](O)COP(=O)(O)O` — result for “thermal stability ratio”: 0.625 and 0.45 and 0.696 (Small ribosomal subunit protein uS19 (Homo sapiens, UniProt P62841); thermal proteome profiling, measured: RPS15; HepG2 cell lysate; concentration not given, 57 over 37 °C; baseline: compound over control).
For `CN[C@H](CC(C)C)C(=O)N[C@H]1C(=O)N[C@@H](CC(N)=O)C(=O)N[C@H]2C(=O)N[C@H]3C(=O)N[C@H](C(=O)N[C@H](C(=O)O)c4cc(O)cc(O)c4-c4cc3ccc4O)[C@H](O)c3ccc(c(Cl)c3)Oc3cc2cc(c3O[C@@H]2O[C@H](CO)[C@@H](O)[C@H](O)[C@H]2O[C@H]2C[C@](C)(N)[C@H](O)[C@H](C)O2)Oc2ccc(cc2Cl)[C@H]1O`, binding read “binds” (T1, aptamer DNA; competitor, fluorescence; pH 7.4, MgCl2 10 mM).
For `O=C1CC[C@@H](C(=O)Nc2ccc3ccccc3c2)N1`, hydrolysis read “inactive” (rat aminopeptidase III; substrate; concentration not given, pH 7.0).
`Cc1cc(NC2Cc3cccc(F)c3C2)n2nc(C(C)(F)F)nc2n1` (stereo not drawn) has a robust Z-score of 19.7 (pyrD; enzyme activity, inhibitor, colorimetric HTS, measured: DCIP reduction; 3 µM; direction not given).
For `COc1ccc(/C=C2\SC(=O)N(Cc3nc4ccccc4s3)C2=O)cc1`, the Hill slope was -0.569 (AKR1B1; enzyme activity, inhibitor).
`[O-][S+]1CCCCS1` (stereo not drawn) gave a target engagement of 55.7% (Superoxide dismutase [Cu-Zn] (SOD1, Homo sapiens, UniProt P00441, G94A); intact protein LC-MS; SOD1 G93A transgenic mice, whole blood; intravenous, 10 mg/kg, 2 h, mean of two mice).

A few entries again:
`O=C(COP(=O)(O)O)[C@@H](O)[C@H](O)[C@H](O)COP(=O)(O)O` — result for “thermal stability ratio”: 0.625 and 0.45 and 0.696 (Small ribosomal subunit protein uS19 (Homo sapiens, UniProt P62841); thermal proteome profiling, measured: RPS15; HepG2 cell lysate; concentration not given, 57 over 37 °C; baseline: compound over control).
For `CN[C@H](CC(C)C)C(=O)N[C@H]1C(=O)N[C@@H](CC(N)=O)C(=O)N[C@H]2C(=O)N[C@H]3C(=O)N[C@H](C(=O)N[C@H](C(=O)O)c4cc(O)cc(O)c4-c4cc3ccc4O)[C@H](O)c3ccc(c(Cl)c3)Oc3cc2cc(c3O[C@@H]2O[C@H](CO)[C@@H](O)[C@H](O)[C@H]2O[C@H]2C[C@](C)(N)[C@H](O)[C@H](C)O2)Oc2ccc(cc2Cl)[C@H]1O`, binding read “binds” (T1, aptamer DNA; competitor, fluorescence; pH 7.4, MgCl2 10 mM).
For `O=C1CC[C@@H](C(=O)Nc2ccc3ccccc3c2)N1`, hydrolysis read “inactive” (rat aminopeptidase III; substrate; concentration not given, pH 7.0).
`Cc1cc(NC2Cc3cccc(F)c3C2)n2nc(C(C)(F)F)nc2n1` (stereo not drawn) has a robust Z-score of 19.7 (pyrD; enzyme activity, inhibitor, colorimetric HTS, measured: DCIP reduction; 3 µM; direction not given).
